Assay results from different studies.
Protocols differ between the studies behind these lines. ± gives the spread as reported.

With `N=C(N)NCCC[C@H](NC(=O)[C@H](Cc1c[nH]c2ccccc12)NC(=O)[C@H](CCC(N)=O)NC(=O)[C@H](Cc1c[nH]c2ccccc12)NC(=O)[C@@H](N)CCCNC(=N)N)C(=O)N[C@@H](Cc1c[nH]c2ccccc12)C(=O)N[C@@H](CCC(N)=O)C(=O)N[C@@H](Cc1c[nH]c2ccccc12)C(=O)N[C@@H](CCCN)C(N)=O` the IC50 was 40 µM (Caco-2; cell growth or viability, MTT).
With `O=C(NC12CC3CC(CC(C3)C1)C2)c1ccc(NC(=O)c2cc3c(F)cc(F)cc3[nH]2)cc1` the IC50 was over 10 µM (KNS-42; cell growth or viability, resazurin; 72 h).
`CNC(=O)c1cc(Oc2ccc(NC(=O)Nc3ccc(Cl)c(C(F)(F)F)c3)c(F)c2)ccn1` gave an IC50 of 0.95 µM (MHCC97H; cell growth or viability, MTT; 48 h).
`CC1(C)[C@@H]2CC[C@]3(C)[C@H](CC[C@@H]4CC=C(O[Si](C)(C)C(C)(C)C)C[C@]43C=N)[C@@]2(C)CCC12OCCO2` has an IC50 of 0.29 µM (mouse DRG neurons; voltage-gated calcium current, inhibitor, patch clamp).
With `O=C(c1cc2c(F)cc(F)cc2[nH]1)N1CCNCC1` the IC50 was 1.34 µM (KNS-42; cell growth or viability, resazurin; 72 h).
`N.N.[Cl][Pt][Cl]` has an IC50 of 49.7 ± 1.3 µM (HCT-116; cell viability, MTS; 48 h).
`COc1ccc(NC(=O)Cn2cnc3ccccc3c2=O)c([N+](=O)[O-])c1` gave an IC50 of over 100 µM (MDA-MB-231; cell growth or viability, crystal violet; 48 h).
With `CC(C)c1ccc2c(c1)CC[C@H]1[C@](C)(CN)CCC[C@]21C` the IC50 was 10 ± 0.36 µM (HFK normal keratinocytes; cell viability, MTS; 24 h).
The IC50 of `COc1cc(C(=O)c2oc3ccccc3c2N)cc(OC)c1OC` is reported as 32.4 µM (L1210; cell growth or viability).
The IC50 of `COc1cc2cc(c1Cl)N(C)C(=O)C[C@H](OC(=O)[C@H](C)N(C)C(=O)CCS)[C@]1(C)O[C@H]1[C@H](C)[C@@H]1C[C@@](O)(NC(=O)O1)[C@H](OC)/C=C/C=C(\C)C2` is reported as 0.0048 µM (MDA-MB-468; cell growth or viability, ATP luminescence).
For `C=CCN1CC[C@]23c4c5ccc(O)c4O[C@@H]2/C(=N/N=C2\CC[C@@]4(O)C6Cc7ccc(O)c8c7[C@@]4(CCN6CC=C)[C@@H]2O8)CC[C@@]3(O)C1C5`, the IC50 was 0.46 µM (HEK293 expressing MOR; cAMP overshoot, inhibitor, HTRF cAMP; with: morphine then naloxone).

Some of these lines once more:
With `N=C(N)NCCC[C@H](NC(=O)[C@H](Cc1c[nH]c2ccccc12)NC(=O)[C@H](CCC(N)=O)NC(=O)[C@H](Cc1c[nH]c2ccccc12)NC(=O)[C@@H](N)CCCNC(=N)N)C(=O)N[C@@H](Cc1c[nH]c2ccccc12)C(=O)N[C@@H](CCC(N)=O)C(=O)N[C@@H](Cc1c[nH]c2ccccc12)C(=O)N[C@@H](CCCN)C(N)=O` the IC50 was 40 µM (Caco-2; cell growth or viability, MTT).
